Measurements pooled from the literature.
Lines come from different studies, so protocols differ. ± gives the spread as reported.

| SMILES | tested on | test | test system | conditions | scale | measurement | result |
| --- | --- | --- | --- | --- | --- | --- | --- |
| CC(C)[C@H](NC(=O)CNC(=O)[C@H](CCC(N)=O)NC(=O)[C@H](C)N)C(=O)O | – | LC-MS/MS | human, male, plasma | intravenous, 10 mg/kg three times daily, day 3, first dose, 10 min infusion, geometric mean | – | Cmax | 2420 ng/mL |
| CCCCC/C=C/C=C/C(=O)NCC(C)C | – | – | rat, sham-operated, plasma | oral, 50 mg/kg | – | MRT | 2.78 ± 0.56 h |
| NCCCC(=O)OCC(=O)c1ccc(O)c(C(F)(F)F)c1.O=C(O)C(F)(F)F | – | photolysis, item: rearranged acid appearance | unbuffered water | – | – | quantum yield | 0.14 |
| Oc1cccc(-c2cccc(O)n2)n1.[Cl-].[Cl-].[Ru+2].c1cnc2c(c1)c1c(c3cccnc32)OCCO1.c1cnc2c(c1)c1c(c3cccnc32)OCCO1 | – | shake flask | octanol/phosphate buffer | pH 7.00 | – | logD | 1.62 |
| C#CCOc1ccc(/C=C2\SC(=O)N(CC(=O)NCc3ccccc3)C2=O)cc1 | – | inverse Kirkwood-Buff integrals | binary solvent mixture | 298.15 K, mole fraction x1 0.40 | – | Kirkwood-Buff integral G1,3 | -264 cm³/mol |
| CC(C)CCCC(C)CCCC(C)CCO[C@@H]1O[C@H](CO)[C@@H](O[C@H]2O[C@H](CO)[C@@H](O)[C@H](O)[C@H]2O)[C@H](O)[C@H]1O (stereo partly shown) | – | dynamic surface tension | – | 0.0018 mmol/L | – | induction time | 433 s |
| NC12CNCCNCC(NCc3ccc(CNC(=O)CCCC(=O)NCc4ccc(-c5nncnn5)cc4)cc3)(CNCCNC1)CNCCNC2.[64Cu+2] | – | OLINDA dosimetry | kidneys | 48 h pretargeting interval, with: huA33-TCO pretargeting | – | mean absorbed dose | 0.0538 rad/mCi |
| N=C(N)NS(=O)(=O)c1ccc(-n2cc(Cn3c(=O)c(Cc4ccccc4)nc4ccccc43)nn2)cc1 | – | MTT | rat primary colonocytes, Albino rat, male | 72 h, concentration at 100% viability | – | safe concentration | 0.047 ± 0.006 µM |
| CC[C@H](C)[C@H](NC(=O)[C@H](N)Cc1ccc(O)cc1)C(=O)N[C@H]1CSSC[C@@H](C(=O)N(C)[C@H](C(N)=O)[C@@H](C)CC)NC(=O)[C@H](CCCNC(=N)N)NC(=O)[C@H](Cc2c[nH]cn2)NC(=O)[C@H](C)NC(=O)CN(C)C(=O)[C@H](Cc2c[nH]c3ccccc23)NC(=O)[C@H](CC(=O)O)NC(=O)[C@H](CCC(N)=O)NC(=O)[C@H](Cc2cn(C)c3ccccc23)NC(=O)[C@H](C(C)C)NC1=O | – | UPLC-ESI-MS | cynomolgus monkey plasma | 0.18 µg/mL, 24 h, 25 °C, bench-top after SPE | – | recovery | 98.9 ± 1.3% |
| COc1cc(/C=C/C(=O)NCCCCCCNC2=C3C[C@@H](C)C[C@H](OC)[C@H](O)[C@@H](C)/C=C(\C)[C@H](OC(N)=O)[C@@H](OC)/C=C\C=C(/C)C(=O)NC(=CC2=O)C3=O)ccc1O | – | – | Kunming mice, serum | 10 mg/kg once daily, 3 days | – | serum AST | 199 ± 33.1 U/L |
| Oc1cc2nc(c1)CNCCCNCCCNCCCNCCCNCCCNC2 | – | potentiometric titration | 0.15 M NaClO4 | 298.1 K, overall protonation | – | log β | 54.7 |
| Cn1c(=O)oc2ccc(-c3ccc(CC(C#N)NC(=O)C4CNCCCO4)c(F)c3)cc21 (stereo not shown) | – | – | human | oral, 10 mg once daily, treatment-related AE, multiple ascending dose | – | ALT increased incidence | 11.1% |
| COc1ccc(/C=C/c2ccc(-c3ccc(C)cn3)nc2)cc1 | – | TCSPC | CHCl3 | – | – | radiative decay rate constant | 0.52 ns⁻¹ |
| CCCC(CCC)NC(=O)c1ccc(OC2OC(C(=O)O)C(O)C(O)C2O)c(OC)c1 (stereo not shown) | – | – | female Sprague-Dawley rats, plasma | oral, 50 mg/kg of parent drug | relative to: 50 over 20 mg/kg dose | Cmax ratio | 1.83 |
| CCCC[C@H](NC(=O)CNC(=O)CNC(=O)CN1CCN(CC(=O)O)CCN(CC(=O)O)CCN(CC(=O)O)CC1)C(=O)N[C@H]1CC(=O)NCCCC[C@@H](C(N)=O)NC(=O)[C@H](Cc2c[nH]c3ccccc23)NC(=O)[C@H](CCCNC(=N)N)NC(=O)[C@@H](Cc2ccccc2)NC(=O)[C@H](Cc2c[nH]cn2)NC1=O [copper-64 labelled] | – | – | female C57 mouse, B16/F1 melanoma | intravenous, 0.037 MBq, 4 h | relative to: tumour over heart | uptake ratio | 3.62 |
| [64Cu+2].c1ccc(CNCc2ccc(CN3CCCN4CCNCCCN(CC4)CC3)cc2)nc1 | CXCR4 | – | NOD/SCID mouse, U87 and U87-stb-CXCR4 xenografts, muscle | iv, 90 min, ex vivo | – | tissue uptake | 0.35 ± 0.05 %ID/g |
| CC(C)(O)c1ncc([S@](N)(=O)=NC(=O)Nc2c3c(cc4c2CCC4)CCC3)s1 | – | – | healthy human | oral, 200 mg once daily, day 1, spray-dried dispersion, geometric mean | – | AUC(0-tau) | 163000 ng·h/mL |
| COc1cc(NC(C)=O)c2c(c1O)-c1c(OC)c(OC)cc3c1C(C2)N(C)CC3 (stereo not shown) | – | – | rat liver homogenate | 50 µg/mL, 24 h, room temperature, post-preparative storage | – | remaining compound | 92.7 ± 0.2% |
| CN1CCC[C@]1(C)/C=C/S(=O)(=O)NC(=O)Nc1c2c(cc3c1CCC3)CCC2 | – | – | human, urine | oral, 25 mg single dose | – | percent of dose in urine | 84.8% |
| CC(C)(C)ONc1nc(Nc2ccnc(C(F)(F)F)c2)nc(-c2cccc(C(F)(F)F)n2)n1 | – | – | female Balb/cA nude mice xenograft | oral, 18.05 mg/kg, Cmax | relative to: tumour over plasma | tissue/plasma ratio | 4.4 |
| [11CH3]c1ccc2nc(C3CCC3)n(-c3ccc4[nH]ncc4c3)c2n1 | – | – | standard human adult, muscle | – | – | absorbed radiation dose | 2.1 µSv/MBq |
| CC(C)CCN(Cc1ccc(F)cc1)c1nc(C#N)nc(N2CCOCC2)n1 | – | – | female CD-1 mice | intraperitoneal, 10 mg/kg, 2 h | – | plasma concentration | 17.3 ng/mL |

| SMILES | tested on | test | test system | conditions | scale | measurement | result |
| --- | --- | --- | --- | --- | --- | --- | --- |
| CCCC[C@H](NC(=O)CNC(=O)CNC(=O)CN1CCN(CC(=O)O)CCN(CC(=O)O)CCN(CC(=O)O)CC1)C(=O)N[C@H]1CC(=O)NCCCC[C@@H](C(N)=O)NC(=O)[C@H](Cc2c[nH]c3ccccc23)NC(=O)[C@H](CCCNC(=N)N)NC(=O)[C@@H](Cc2ccccc2)NC(=O)[C@H](Cc2c[nH]cn2)NC1=O [gallium-67 labelled] | – | – | female C57 mice, B16/F1 melanoma | intravenous, 0.037 MBq, 0.5 h | relative to: tumour over liver | tumour to tissue ratio | 14.8 |
| O=C(O)[C@@H]1C[C@@H](O)CN1C(=O)[C@@H]1CCCN1 | – | potentiometric titration | – | 40 °C, with: Fe(III) | – | log beta | 8.15 |
| [64Cu+2].c1cnc(CNCc2ccc(CN3CCCN4CCNCCCN(CC4)CC3)cc2)nc1 | CXCR4 | – | NOD/SCID mouse, U87 and U87-stb-CXCR4 xenografts, lungs | iv, 450 min, ex vivo | – | tissue uptake | 5.69 ± 0.23 %ID/g |
| CCc1cc(Nc2nc(-c3ccc(-n4cnc(C)c4)c(F)c3)cs2)c(C)cc1C | – | – | human, both sexes, plasma | oral, 100 mg, day 1, multiple dose, geometric mean | – | terminal half-life | 7.5 h |
| CN(C)c1cccc2c(S(=O)(=O)NCCCCCCCC(=O)NO)cccc12 | – | fluorescence | – | – | – | emission wavelength | 500 nm |
| NCCCC(=O)OCC(=O)c1cc(F)c(O)cc1F.O=C(O)C(F)(F)F | – | photolysis, item: rearranged acid appearance | aqueous HEPES buffer with LiClO4 | pH 8.2 | – | quantum yield | < 0.01 |
| Cc1ccc(/N=N/c2c(O)ccc3ccccc23)c(C)c1 | – | – | rat whole blood extract | 0.2 µg/L, 30 days, -20 °C, long-term storage | – | stability deviation | -2% |
| COc1cc(OC)cc(C2=C3C(C)=C(I)C(/C=C/c4c[nH]c5ccc([N+](=O)[O-])cc45)=[N+]3[B-](F)(F)n3c(/C=C/c4c[nH]c5ccc([N+](=O)[O-])cc45)c(I)c(C)c32)c1 | – | – | dichloromethane | – | – | emission maximum | 721 nm |
| CC(C)c1cnc(-c2cc(Cl)ccc2F)cc1Nc1ccncc1C(=O)NC(CO)CO | – | monotherapy, item: rash | human patients | oral, dose not given, grade 4, phase I A | – | patients with treatment-related adverse event | 0% |
| O=C([O-])CN1CCN(CC(=O)[O-])CCN(CC(=O)NCCc2ccc3c(c2)C2C=CCC2C(c2cc4c(cc2Br)OCO4)N3)CCN(CC(=O)[O-])CC1.[111In+3] (stereo not shown) | – | – | mouse, Hec50 endometrial tumour, small intestine | 4 h post injection | – | tissue uptake | 1.25 ± 0.11 %ID/g |
| NC[C@@H](C(=O)Nc1ccc(-c2cn[nH]c2)cc1)c1ccccc1 | – | metabolic stability | rabbit, liver microsomes | – | – | microsomal CLint | 16.9 µL/min/mg |
| C=C(c1ncc(C(=O)O)cn1)c1cc2c(cc1C)C(C)(C)CCC2(C)C | – | – | Sprague-Dawley rat, male | oral, 100 mg/kg, 1 h, sesame oil vehicle | – | blood cholesterol | 107 ± 20.1 mg/dL |
| N=C(N)NCCC[C@@H]1NC(=O)[C@H](Cc2c[nH]c3ccccc23)NC(=O)[C@@H](CC2CCCCC2)NC(=O)[C@@H]2CCCN2C(=O)[C@@H](NC(=O)CCc2ccccc2)CCCNC1=O | – | – | C57BL/6J mice, plasma | intraperitoneal, 1 mg/kg | – | elimination half-life | 10.1 min |
| CN1C(=O)c2cccc3c2C1=Cc1ccccc1N3Cc1cccc(NC2CCN([11CH3])CC2)c1 | – | PET/CT | C57BL/6 mouse male, lung | intravenous, 5 min | – | SUV | 1.05 |
| CC[C@H](C)[C@H](NC(=O)[C@H](CC(C)C)NC(=O)[C@H](Cc1c[nH]c2ccccc12)NC(=O)[C@H](C)NC(=O)[C@@H](NC(=O)[C@H](Cc1ccccc1)NC(=O)[C@H](CC(=O)O)NC(=O)[C@H](CCCNC(=N)N)NC(=O)[C@H](C)NC(=O)[C@H](C)NC(=O)[C@H](CC(C)C)NC(=O)[C@H](C)NC(=O)[C@H](CC(=O)O)NC(=O)[C@H](CC(C)C)NC(=O)[C@@H](NC(=O)[C@@H](NC(=O)[C@H](C)NC(=O)[C@H](CC(C)C)NC(=O)[C@H](CCC(=O)O)NC(=O)[C@H](CO)NC(=O)[C@H](CO)NC(=O)[C@H](Cc1ccccc1)NC(=O)[C@@H](NC(=O)CNC(=O)[C@H](CCC(=O)O)NC(=O)CNC(=O)[C@@H](N)Cc1c[nH]cn1)[C@@H](C)O)[C@@H](C)O)[C@@H](C)CC)[C@@H](C)CC)C(=O)N[C@@H](C)C(=O)N[C@H](C(=O)N[C@@H](CCCCN)C(=O)N[C@H](C(=O)N[C@H](C(=O)N[C@@H](CC(=O)O)C(=O)N[C@@H](CCCCN)C(=O)N[C@@H](CCCCN)C(=O)O)[C@@H](C)O)[C@@H](C)CC)[C@@H](C)O | – | immunoaffinity LC-MS/MS | healthy human subjects, plasma | intravenous infusion, 1 mg single dose, infused over 15 min | – | terminal half-life | 1.2 h |
| COC(=O)c1ccc2c(c1)NC(=O)/C2=C(\Nc1ccc2c(c1)CCN2C(=O)CN1CCOCC1)c1ccccc1 | – | – | beagle dog, plasma | oral, 50 mg/kg | – | half-life | 6.71 h |
| Cc1nc(C)c(C=[N+]([O-])C(C)(C)C)nc1C | – | – | healthy human, both sexes, serum | oral, 600 mg twice daily, 7 days | – | AUC(0-tau) | 23800 ng·h/mL |
| Nc1ncnc2c1nc(-n1nnc3c1CCC1C(CO)C1CC3)n2C1CC(O)C(CO)O1 (mixture of isomers) | – | – | methanol | – | – | brightness | 0.25 M⁻¹ cm⁻¹ |
| COc1cc(CC(=O)N/C=C/c2ccc(C(F)(F)F)cc2)ccc1O | – | eye-wiping | C57BL/6 mice, both sexes | ocular instillation, 1 min | – | moderate pain-producing concentration | 0.101 mg/mL |
| CC12CC(c3ccc(S(C)(=O)=O)cc3)C3=C4CCC(=O)C=C4CCC3C1CCC2(O)C(F)(F)C(F)(F)F (stereo not shown) | – | – | human, plasma | intravenous, 15.7 µg, [14C] microtracer, geometric mean | – | terminal half-life | 42.4 h |
| Cc1[nH]c(/C=C2\C(=O)Nc3ccc(F)cc32)c(C)c1NC(=O)CCN1CCN(C)CC1 | – | – | dog plasma | 40 ng/mL, 30 d frozen, -80 °C | – | accuracy deviation | -1.06% |
